Earlier results as cited in several papers.
Compare with care: the assays were run in different laboratories. ± marks the error that the study gave.
CD58 with CD2: Lymphocyte function-associated antigen 3, with CD2 (CD58, Homo sapiens, UniProt P19256)

The chains behind the UniProt entries cited, without tags or fusion partners. Where a name states a change or a piece, a line headed by the entry shows the natural chain unless it says otherwise. Residues count along the entry.
UniProt P19256, 29-250 limits assumed: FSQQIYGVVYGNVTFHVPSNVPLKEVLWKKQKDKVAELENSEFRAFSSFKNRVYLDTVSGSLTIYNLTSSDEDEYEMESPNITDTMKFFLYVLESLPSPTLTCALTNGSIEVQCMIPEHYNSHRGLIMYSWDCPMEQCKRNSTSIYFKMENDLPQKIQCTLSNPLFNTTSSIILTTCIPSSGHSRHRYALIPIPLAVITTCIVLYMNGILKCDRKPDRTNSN
UniProt P29477, whole entry: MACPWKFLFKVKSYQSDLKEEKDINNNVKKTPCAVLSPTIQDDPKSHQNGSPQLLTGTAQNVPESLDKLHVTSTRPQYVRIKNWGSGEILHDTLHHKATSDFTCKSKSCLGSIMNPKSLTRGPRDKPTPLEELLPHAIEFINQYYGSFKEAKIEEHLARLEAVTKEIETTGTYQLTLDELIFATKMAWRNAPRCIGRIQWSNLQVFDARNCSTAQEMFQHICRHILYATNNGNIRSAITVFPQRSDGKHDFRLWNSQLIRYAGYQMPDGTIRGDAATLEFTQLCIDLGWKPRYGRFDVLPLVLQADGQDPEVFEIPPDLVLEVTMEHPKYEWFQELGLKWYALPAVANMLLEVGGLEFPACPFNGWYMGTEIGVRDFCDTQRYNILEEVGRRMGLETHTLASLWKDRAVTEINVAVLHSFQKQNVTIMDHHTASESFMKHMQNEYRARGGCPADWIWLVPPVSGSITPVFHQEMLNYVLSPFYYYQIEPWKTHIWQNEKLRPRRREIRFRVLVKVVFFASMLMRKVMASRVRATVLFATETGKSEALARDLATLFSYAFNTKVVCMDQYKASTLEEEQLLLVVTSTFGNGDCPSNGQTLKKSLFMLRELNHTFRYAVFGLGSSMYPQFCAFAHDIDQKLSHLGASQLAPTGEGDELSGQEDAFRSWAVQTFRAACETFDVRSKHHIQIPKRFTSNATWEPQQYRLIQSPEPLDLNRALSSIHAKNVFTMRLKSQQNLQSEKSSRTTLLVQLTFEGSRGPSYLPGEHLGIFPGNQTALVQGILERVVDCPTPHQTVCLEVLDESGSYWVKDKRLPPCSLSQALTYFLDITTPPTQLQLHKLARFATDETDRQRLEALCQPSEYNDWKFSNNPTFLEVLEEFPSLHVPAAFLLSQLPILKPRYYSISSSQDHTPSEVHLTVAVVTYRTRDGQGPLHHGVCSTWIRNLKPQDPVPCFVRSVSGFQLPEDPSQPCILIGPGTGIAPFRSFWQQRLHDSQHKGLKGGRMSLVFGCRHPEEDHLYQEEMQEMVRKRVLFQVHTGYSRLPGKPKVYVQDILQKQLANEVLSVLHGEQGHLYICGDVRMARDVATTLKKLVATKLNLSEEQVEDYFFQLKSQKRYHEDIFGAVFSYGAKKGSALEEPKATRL
UniProt A0A0H2ZM50, 1-441: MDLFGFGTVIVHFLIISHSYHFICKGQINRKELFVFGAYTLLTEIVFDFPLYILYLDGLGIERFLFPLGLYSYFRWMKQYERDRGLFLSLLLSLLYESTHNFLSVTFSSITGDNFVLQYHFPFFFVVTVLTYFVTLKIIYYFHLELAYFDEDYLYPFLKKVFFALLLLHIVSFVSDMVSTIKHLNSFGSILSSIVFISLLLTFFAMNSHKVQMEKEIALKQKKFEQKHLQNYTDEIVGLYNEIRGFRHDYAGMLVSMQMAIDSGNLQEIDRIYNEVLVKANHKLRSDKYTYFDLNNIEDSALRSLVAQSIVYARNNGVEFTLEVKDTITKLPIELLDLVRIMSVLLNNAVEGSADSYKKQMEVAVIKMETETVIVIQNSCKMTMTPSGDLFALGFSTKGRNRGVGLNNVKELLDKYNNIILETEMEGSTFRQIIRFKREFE
UniProt P00533, whole entry C797S/L858R, looked up: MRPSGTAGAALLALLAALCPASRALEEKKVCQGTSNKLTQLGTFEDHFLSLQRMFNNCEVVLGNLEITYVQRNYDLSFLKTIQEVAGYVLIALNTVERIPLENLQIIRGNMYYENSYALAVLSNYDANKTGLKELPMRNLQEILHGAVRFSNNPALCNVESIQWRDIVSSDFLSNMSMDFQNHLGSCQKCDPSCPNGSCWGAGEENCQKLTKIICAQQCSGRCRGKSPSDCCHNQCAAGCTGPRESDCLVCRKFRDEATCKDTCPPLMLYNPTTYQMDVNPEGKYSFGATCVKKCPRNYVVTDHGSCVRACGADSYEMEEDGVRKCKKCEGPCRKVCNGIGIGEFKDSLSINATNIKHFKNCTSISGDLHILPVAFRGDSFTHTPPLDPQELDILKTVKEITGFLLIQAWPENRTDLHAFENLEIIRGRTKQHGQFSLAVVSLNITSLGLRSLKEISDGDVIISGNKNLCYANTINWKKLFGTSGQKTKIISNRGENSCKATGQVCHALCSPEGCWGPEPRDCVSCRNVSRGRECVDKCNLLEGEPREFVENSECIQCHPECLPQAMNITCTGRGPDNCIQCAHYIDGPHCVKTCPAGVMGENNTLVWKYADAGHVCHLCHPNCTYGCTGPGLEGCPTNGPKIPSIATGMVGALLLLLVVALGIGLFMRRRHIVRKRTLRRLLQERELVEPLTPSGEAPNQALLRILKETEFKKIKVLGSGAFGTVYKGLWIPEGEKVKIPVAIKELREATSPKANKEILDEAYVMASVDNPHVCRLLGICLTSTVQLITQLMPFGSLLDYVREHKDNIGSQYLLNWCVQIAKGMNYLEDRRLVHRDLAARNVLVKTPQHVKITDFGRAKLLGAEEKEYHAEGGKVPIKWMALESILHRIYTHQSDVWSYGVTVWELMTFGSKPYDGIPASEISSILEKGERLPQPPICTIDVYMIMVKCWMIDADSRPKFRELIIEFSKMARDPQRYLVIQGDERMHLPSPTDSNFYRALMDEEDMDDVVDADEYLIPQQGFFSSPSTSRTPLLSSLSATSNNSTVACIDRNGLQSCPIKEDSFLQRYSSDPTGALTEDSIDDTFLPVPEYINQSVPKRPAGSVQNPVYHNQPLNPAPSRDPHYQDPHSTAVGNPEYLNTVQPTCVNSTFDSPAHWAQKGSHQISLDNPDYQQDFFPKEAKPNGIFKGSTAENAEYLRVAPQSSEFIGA
UniProt O08967, 261-387 limits assumed: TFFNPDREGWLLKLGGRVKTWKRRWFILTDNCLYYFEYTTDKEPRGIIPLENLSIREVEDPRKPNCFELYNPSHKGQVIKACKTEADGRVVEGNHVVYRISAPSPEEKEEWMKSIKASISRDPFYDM
UniProt Q01727, whole entry: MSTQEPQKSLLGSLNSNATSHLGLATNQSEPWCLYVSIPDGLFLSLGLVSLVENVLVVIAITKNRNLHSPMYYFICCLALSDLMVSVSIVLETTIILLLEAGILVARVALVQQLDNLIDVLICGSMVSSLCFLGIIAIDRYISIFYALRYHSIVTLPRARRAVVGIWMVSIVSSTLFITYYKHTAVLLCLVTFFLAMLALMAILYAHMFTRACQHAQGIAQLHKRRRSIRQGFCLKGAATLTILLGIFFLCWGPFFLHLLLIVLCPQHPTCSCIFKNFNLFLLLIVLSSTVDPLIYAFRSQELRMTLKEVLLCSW
UniProt P30968, whole entry: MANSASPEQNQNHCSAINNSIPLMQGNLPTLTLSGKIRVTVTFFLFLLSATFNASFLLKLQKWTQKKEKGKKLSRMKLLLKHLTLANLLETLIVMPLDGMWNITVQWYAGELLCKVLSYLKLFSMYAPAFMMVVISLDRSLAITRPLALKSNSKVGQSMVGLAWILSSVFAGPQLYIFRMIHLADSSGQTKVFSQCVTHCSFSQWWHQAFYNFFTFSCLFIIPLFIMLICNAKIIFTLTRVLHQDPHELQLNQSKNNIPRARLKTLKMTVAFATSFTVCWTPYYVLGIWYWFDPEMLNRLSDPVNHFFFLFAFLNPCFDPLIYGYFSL
UniProt Q9NZQ7, whole entry, looked up: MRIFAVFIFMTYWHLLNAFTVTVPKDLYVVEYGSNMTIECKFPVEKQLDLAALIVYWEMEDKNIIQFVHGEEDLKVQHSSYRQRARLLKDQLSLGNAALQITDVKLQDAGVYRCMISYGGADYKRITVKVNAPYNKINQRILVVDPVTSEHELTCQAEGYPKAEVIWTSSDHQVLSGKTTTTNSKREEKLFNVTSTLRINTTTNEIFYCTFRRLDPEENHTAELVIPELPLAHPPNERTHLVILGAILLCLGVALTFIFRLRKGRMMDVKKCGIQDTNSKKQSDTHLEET
UniProt P06729, 25-351 partner limits assumed: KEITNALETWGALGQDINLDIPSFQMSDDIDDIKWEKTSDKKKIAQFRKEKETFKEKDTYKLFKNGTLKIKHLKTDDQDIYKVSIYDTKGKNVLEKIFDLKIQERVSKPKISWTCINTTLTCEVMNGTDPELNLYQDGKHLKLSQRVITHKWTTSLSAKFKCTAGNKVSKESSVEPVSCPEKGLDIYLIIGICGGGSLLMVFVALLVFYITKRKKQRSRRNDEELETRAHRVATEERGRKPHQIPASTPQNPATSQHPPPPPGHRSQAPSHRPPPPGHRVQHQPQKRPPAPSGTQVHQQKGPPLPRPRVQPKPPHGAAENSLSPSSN

Cc1cc(N)nc(CCc2cccc(C(O)Cc3cc(C)cc(N)n3)c2)c1 (stereo not drawn)  Ki (Nitric oxide synthase, inducible (Nos2, Mus musculus, UniProt P29477)): 1450 nM
CC[C@H](C)[C@H](NC(=O)[C@H](Cc1ccccc1)NC(=O)[C@H](CC(=O)O)NC(=O)[C@H](CCCNC(=N)N)NC(=O)[C@H](Cc1ccccc1)NC(=O)[C@H](Cc1ccccc1)NC(=O)[C@H](CCCCN)NC(=O)[C@H](CO)NC(=O)[C@H](CC(C)C)NC(=O)[C@H](CCCNC(=N)N)NC(=O)[C@H](CCSC)NC(=O)[C@H](C)N)C(=O)N[C@@H](CC(C)C)C(=O)N[C@@H](CCC(N)=O)C(=O)N[C@@H](CCCNC(=N)N)C(=O)N[C@@H](CCCCN)C(=O)N[C@@H](CCCCN)C(=O)O  IC50 (Competence histidine kinase ComD (Streptococcus pneumoniae serotype 2, UniProt A0A0H2ZM50); ComD1 signalling, competitive inhibitor, reporter gene; Streptococcus pneumoniae, D39 pcomX::lacZ): 86 nM
C/C(=N\Nc1nc2ccccc2n1C)c1ccccn1  terminal half-life (concentration not given): 1 h
COc1ccc(NC(=O)Cn2c(-c3cscn3)nc3ccccc32)cc1  IC50 (Inosine-5'-monophosphate dehydrogenase 2 (IMPDH2, Homo sapiens, UniProt P12268); enzyme activity, inhibitor; lower bound): ≥ 200000 nM
O=C(Nc1ccc(-c2nc3ccccc3s2)cc1)C1CCN(S(=O)(=O)c2ccccc2Cl)CC1  half-life (rat liver microsomes): 8.82 min
COc1cc(N2CCC(N3CCN(C)CC3)CC2)ccc1Nc1ncc(Cl)c(Nc2ccccc2NS(C)(=O)=O)n1  IC50 (Epidermal growth factor receptor (EGFR, Homo sapiens, UniProt P00533, C797S/L858R); kinase activity, inhibitor, biochemical kinase; with: ATP at Km): 5.35 nM
CCCCCCCC(=O)OC[C@H](COP(=O)(O)O[C@H]1[C@H](O)[C@@H](OP(=O)(O)O)[C@H](OP(=O)(O)O)[C@@H](OP(=O)(O)O)[C@H]1O)OC(=O)CCCCCCC  Kd (Cytohesin-3, PH domain (Cyth3, Mus musculus, UniProt O08967); SPR): 59 to 170 nM
CC(C)[C@H](NC(=O)[C@@H]1CCCN1C(=O)[C@H](CCCNC(=N)N)NC(=O)[C@H](CS)NC(=O)[C@H](Cc1c[nH]c2ccccc12)NC(=O)[C@H](CCCNC(=N)N)NC(=O)[C@@H](Cc1ccccc1)NC(=O)[C@H](Cc1c[nH]cn1)NC(=O)[C@H](CCC(=O)O)NC(=O)[C@H](CS)NC(=O)[C@H](CS)NC(=O)[C@H](CCCNC(=N)N)NC(=O)[C@@H]1CC(=O)N[C@@H](CCCNC(=N)N)C(=O)NCC(=O)N[C@@H](CC(=O)O)C(=O)N[C@H](Cc2ccc(O)cc2)C(=O)N1)C(N)=O  IC50 (Melanocyte-stimulating hormone receptor (Mc1r, Mus musculus, UniProt Q01727); B16-F1): 0.7 nM
Cc1ccc([C@H](CC(=O)O)NC(=O)Nc2c(O)c(C)cn(Cc3ccccc3Cl)c2=O)cc1  tolerability (human clinical trials; oral): not toxic
CC(C)C[C@H](NC(=O)[C@@H](CCCCNC(=O)CCCCCNC(=O)CN1CCN(CC(=O)O)CCN(CC(=O)O)CCN(CC(=O)O)CC1)NC(=O)[C@H](Cc1ccc(O)cc1)NC(=O)[C@H](CO)NC(=O)[C@H](Cc1c[nH]c2ccccc12)NC(=O)[C@H](Cc1cnc[nH]1)NC(=O)[C@@H]1CCC(=O)N1)C(=O)N[C@@H](CCCNC(=N)N)C(=O)N1CCC[C@H]1C(=O)NCC(N)=O  IC50 (Gonadotropin-releasing hormone receptor (GNRHR, Homo sapiens, UniProt P30968); binding): 36.1 nM
C[C@@H]1NC(=O)[C@H](CCCCN)NC(=O)[C@@H]2CSSC[C@H](NC(=O)[C@H](CO)NC(=O)[C@@H]3CCCN3C(=O)[C@@H]3CCCN3C(=O)[C@H](C)NC(=O)[C@H](CO)NC1=O)C(=O)N[C@@H](Cc1ccc(O)cc1)C(=O)N[C@@H](CC(=O)O)C(=O)NCC(=O)N[C@@H](CC(=O)O)C(=O)N[C@@H](CC(=O)O)C(=O)N2  IC50 (CD58 with CD2; cell adhesion, inhibitor; Jurkat on OVCAR-3): 43 ± 25 nM
O=C(/C=C/c1nc2ccccc2[nH]1)c1c(-c2ccccc2)c2cc(Cl)ccc2[nH]c1=O  dose-limiting toxicity dose (mouse melanoma xenograft; intraperitoneal): 5 mg/kg
C[C@@H]1NC(=O)[C@@H]2CSSC[C@H](NC(=O)[C@H](CC(=O)O)NC(=O)[C@H](CC(=O)O)NC(=O)CNC(=O)[C@H](CC(=O)O)NC(=O)[C@H](Cc3ccc(O)cc3)NC1=O)C(=O)N[C@@H](CCCCN)C(=O)N[C@@H](CO)C(=O)N[C@@H](C)C(=O)N1CCC[C@H]1C(=O)N1CCC[C@H]1C(=O)N[C@@H](CO)C(=O)N2  IC50 (CD58 with CD2; lymphocyte adhesion, inhibitor; Jurkat on HFLS-RA cells): 37 ± 1 nM
NS(=O)(=O)c1c(F)c(F)c(SCCO)c(F)c1NC1CCCCCCC1  pKa (sulfonamide group): 8.8
CCCC[C@H]1C(=O)N(C)CC(=O)N[C@@H](CC(=O)O)C(=O)N[C@@H](C(C)C)C(=O)N(C)[C@@H](Cc2ccccc2)C(=O)N[C@@H](Cc2ccc(O)cc2)C(=O)N(C)CC(=O)N[C@@H](Cc2c[nH]c3ccccc23)C(=O)N[C@@H](Cc2ccc(O)cc2)C(=O)N[C@@H](CC(C)C)C(=O)N[C@H](C(=O)NCC(N)=O)CSCC(=O)N[C@@H](Cc2ccccc2)C(=O)N(C)[C@@H](Cc2ccccc2)C(=O)N1C  EC50 (Programmed cell death 1 ligand 1 (CD274, Homo sapiens, UniProt Q9NZQ7); binding): 293 nM

For quick reference, copied from above:
C[C@@H]1NC(=O)[C@@H]2CSSC[C@H](NC(=O)[C@H](CC(=O)O)NC(=O)[C@H](CC(=O)O)NC(=O)CNC(=O)[C@H](CC(=O)O)NC(=O)[C@H](Cc3ccc(O)cc3)NC1=O)C(=O)N[C@@H](CCCCN)C(=O)N[C@@H](CO)C(=O)N[C@@H](C)C(=O)N1CCC[C@H]1C(=O)N1CCC[C@H]1C(=O)N[C@@H](CO)C(=O)N2  IC50 (CD58 with CD2; lymphocyte adhesion, inhibitor; Jurkat on HFLS-RA cells): 37 ± 1 nM
